# Measured values from different studies.
# Every numbered part comes from another study and shows a few of its results, in no order. Changes are numbered by the printed parent chain.

# Sample 1
# Target: Sal-like protein 4, full length isoform B (SALL4, Homo sapiens, UniProt Q9UJQ4-2, residues 1-616)
# Technique: universal PBM
# Molecule type: double-stranded DNA, one strand shown
# Medium: in vitro
# Tested at: not given
# Notes: 8-mer, flanks averaged, mean of replicates
# Reading: higher = stronger binding
Oligonucleotide,E-score
CGACCTCA,-0.138
CTGTGAGA,-0.0685
CAGGCTAA,-0.193
AAAGCAGG,-0.0377
TCGGATCA,0.0273
ATGGTGGA,0.0265
GCTTTGCC,-0.207
GGCGACAA,-0.197

# Sample 2
# Target: ABI1, truncated, D143A, DHFR fusion (Arabidopsis thaliana, UniProt P49597)
# Technique: DHFR PCA, dose-response
# Medium: yeast
# Notes: Hill fit, mean, not affinity
# Together with: (+)-ABA, dose series
# Reading: lower = more sensitive
# Parent: PYL1, truncated, DHFR fusion (Arabidopsis thaliana, UniProt Q8VZS8); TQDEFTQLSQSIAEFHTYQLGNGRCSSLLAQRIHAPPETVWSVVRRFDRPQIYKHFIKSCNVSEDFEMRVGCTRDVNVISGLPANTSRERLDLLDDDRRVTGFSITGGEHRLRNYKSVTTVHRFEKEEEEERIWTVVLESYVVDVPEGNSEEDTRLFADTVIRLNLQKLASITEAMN
Variant,ABA EC50
I162L,51.7 µM
Q19V,1.92 µM
S26W,9.01 µM
E109F,62.5 µM
L29Q,20.5 µM

# Sample 3
# Target: Phosphate system positive regulatory protein PHO4, full length, GST-tagged (PHO4, Saccharomyces cerevisiae, UniProt P07270, residues 1-312)
# Technique: competition protein-binding microarray
# Molecule type: double-stranded DNA, one strand shown
# Medium: in vitro
# Tested at: 2 µM
# Notes: whole 60-bp probe, lowest competitor level
# Together with: Cbf1 competitor, 0.05 µM
# Reading: higher = stronger binding
# Shared flanks, not repeated: … GTCTTGATTCGCTTGACGCTGCTG
# Residues (chain): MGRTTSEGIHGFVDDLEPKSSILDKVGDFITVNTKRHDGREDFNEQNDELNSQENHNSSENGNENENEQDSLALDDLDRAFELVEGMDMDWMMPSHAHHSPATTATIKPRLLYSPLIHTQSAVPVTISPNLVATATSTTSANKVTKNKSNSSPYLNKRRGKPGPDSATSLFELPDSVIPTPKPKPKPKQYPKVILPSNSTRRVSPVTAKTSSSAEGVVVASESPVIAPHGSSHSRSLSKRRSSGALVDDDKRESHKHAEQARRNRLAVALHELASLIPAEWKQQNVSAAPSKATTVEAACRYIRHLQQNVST
Oligonucleotide,fluorescence intensity
GCCGCAAATGGCAATCACATGACAATGGCTTGGCCC,5970 a.u.
CTTCTGTAAATTTGCAAGGTGGGTGGACGCGCCCCG,3800 a.u.
AGTACTGTAGGCTTGCACACTTTGTTCGCACTCTTA,5200 a.u.
GACTTATCGTCTGAAGTCGTGGGACAAATGGATGCC,7640 a.u.
TCATATTTGACGAGTCACGTTTCTTACAATGTCTAC,11700 a.u.
TCCATCTTTTCTAGCACCGTGGTAGCCATATGGAGA,7460 a.u.
CGCAGGGAGCCTGGCCACATGGGAGGGGTGTGGTCC,8160 a.u.
AAAGCGGTAATTTGTCACGTGGGTGCAGATATCTAT,19300 a.u.

# Single results of other studies
Molecule,target,test,system,setting,how to read,endpoint,result
"PhoQ, residues 284 288 289 292 302 303 AMDMFI","PhoP, residues 12 14 15 18 19 HEGLL (Escherichia coli, UniProt P23836)","Sort-seq, refers to: YFP reporter",E. coli,"PhoQ-PhoP variant library, together with: 10 µM Mg2+","relative to: high Mg2+ state, higher = stronger signaling",fold induction,2.8

# Excerpt of the above (sample 3):
Oligonucleotide,fluorescence intensity
AGTACTGTAGGCTTGCACACTTTGTTCGCACTCTTA,5200 a.u.
GACTTATCGTCTGAAGTCGTGGGACAAATGGATGCC,7640 a.u.
TCATATTTGACGAGTCACGTTTCTTACAATGTCTAC,11700 a.u.
TCCATCTTTTCTAGCACCGTGGTAGCCATATGGAGA,7460 a.u.
